Published values gathered from unrelated publications.
Protocols differ between the studies behind these lines.
Cell line: HCT-116

`CC1(P2(=O)CCCCC2)CCCCC1` gave a selectivity index of 1.4 (MTT; 72 h; baseline: IC50 HaCaT over IC50 HCT-116).
`O=C1/C(=C/c2ccc3ccccc3c2O)NC(=S)N1c1ccccc1` has a selectivity index of 1.5 (baseline: BJ1 IC50 over HCT-116 IC50).
The selectivity index of `CCn1c(C)csc1=NN=C(C)c1c(O)c2ccccc2oc1=O` is reported as greater than 2.75 (cell growth, MTT; baseline: IC50 BJ-1 over HCT-116).
With `COc1nc(NCc2cn(-c3ccc(C(=O)Nc4ccc([N+](=O)[O-])cc4)cc3)nn2)nc(OC)n1` the selectivity index was 1.1 (MTT; 72 h; baseline: normal colonocytes over HCT-116).
The selectivity index of `CCn1c(C)c(C(C)=O)sc1=NN=C(C)c1c(O)c2ccccc2oc1=O` is reported as greater than 2.57 (cell growth, MTT; baseline: IC50 BJ-1 over HCT-116).
The selectivity index of `Cc1cc(NS(=O)(=O)c2ccc(NC(=O)/C(C#N)=C/c3ccncc3)cc2)no1` is reported as greater than 1.07 (cytotoxicity, MTT; baseline: HSF over HCT-116 IC50).
The selectivity index of `COc1nc(NCc2cn(-c3ccc(NC(=O)c4ccc([N+](=O)[O-])cc4)cc3)nn2)nc(OC)n1` is reported as 0.16 (MTT; 72 h; baseline: normal colonocytes over HCT-116).
With `CC(=NN=c1[nH]c(C)c(N=Nc2ccc(C)cc2)s1)c1c(O)c2ccccc2oc1=O` the selectivity index was greater than 2.19 (cell growth, MTT; baseline: IC50 BJ-1 over HCT-116).
For `COc1ccc(C(=O)Nc2ccc(-n3cc(CNc4nc(OC)nc(OC)n4)nn3)cc2)cc1`, the selectivity index was 0.22 (MTT; 72 h; baseline: normal colonocytes over HCT-116).
`O=P1(C2CCCCC2)CCCCC1` has a selectivity index of 7.2 (MTT; 72 h; baseline: IC50 HaCaT over IC50 HCT-116).
With `COc1nc(NCc2cn(-c3ccc(NC(=O)c4ccc(C)cc4)cc3)nn2)nc(OC)n1` the selectivity index was 0.42 (MTT; 72 h; baseline: normal colonocytes over HCT-116).
`CCn1c(C)c(N=Nc2ccccc2)sc1=NN=C(C)c1c(O)c2ccccc2oc1=O` has a selectivity index of greater than 2.12 (cell growth, MTT; baseline: IC50 BJ-1 over HCT-116).
`COc1nc(NCc2cn(-c3ccc(NC(=O)c4ccc(Br)cc4)cc3)nn2)nc(OC)n1` has a selectivity index of 0.27 (MTT; 72 h; baseline: normal colonocytes over HCT-116).
`O=c1[nH]cc(F)c(=O)[nH]1` gave a selectivity index of 4.51 (cytotoxicity, MTT; baseline: HSF over HCT-116 IC50).
The selectivity index of `CC1(P2(=O)CCCCC2)C=CCC=C1` is reported as 1 (MTT; 72 h; baseline: IC50 HaCaT over IC50 HCT-116).

For quick reference, copied from above:
The selectivity index of `CCn1c(C)c(C(C)=O)sc1=NN=C(C)c1c(O)c2ccccc2oc1=O` is reported as greater than 2.57 (cell growth, MTT; baseline: IC50 BJ-1 over HCT-116).
